Experimental data pooled from the literature.
Parts stem from different laboratories: compare values within a part only. Positions count from the first letter of the parent shown.
Chain of UniProt P48730 (whole entry, looked up): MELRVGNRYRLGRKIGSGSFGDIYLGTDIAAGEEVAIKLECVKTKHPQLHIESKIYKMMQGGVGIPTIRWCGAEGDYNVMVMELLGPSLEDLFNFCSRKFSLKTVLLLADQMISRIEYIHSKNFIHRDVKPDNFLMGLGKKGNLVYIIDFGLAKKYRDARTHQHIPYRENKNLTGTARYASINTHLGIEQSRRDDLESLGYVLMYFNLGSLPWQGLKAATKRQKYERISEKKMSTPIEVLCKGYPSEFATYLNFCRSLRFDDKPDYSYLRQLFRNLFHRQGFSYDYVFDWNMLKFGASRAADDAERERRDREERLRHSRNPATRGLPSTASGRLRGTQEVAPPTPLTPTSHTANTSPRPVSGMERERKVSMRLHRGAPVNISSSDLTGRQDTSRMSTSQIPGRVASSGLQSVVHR
Chain of UniProt P22607 (whole entry, looked up): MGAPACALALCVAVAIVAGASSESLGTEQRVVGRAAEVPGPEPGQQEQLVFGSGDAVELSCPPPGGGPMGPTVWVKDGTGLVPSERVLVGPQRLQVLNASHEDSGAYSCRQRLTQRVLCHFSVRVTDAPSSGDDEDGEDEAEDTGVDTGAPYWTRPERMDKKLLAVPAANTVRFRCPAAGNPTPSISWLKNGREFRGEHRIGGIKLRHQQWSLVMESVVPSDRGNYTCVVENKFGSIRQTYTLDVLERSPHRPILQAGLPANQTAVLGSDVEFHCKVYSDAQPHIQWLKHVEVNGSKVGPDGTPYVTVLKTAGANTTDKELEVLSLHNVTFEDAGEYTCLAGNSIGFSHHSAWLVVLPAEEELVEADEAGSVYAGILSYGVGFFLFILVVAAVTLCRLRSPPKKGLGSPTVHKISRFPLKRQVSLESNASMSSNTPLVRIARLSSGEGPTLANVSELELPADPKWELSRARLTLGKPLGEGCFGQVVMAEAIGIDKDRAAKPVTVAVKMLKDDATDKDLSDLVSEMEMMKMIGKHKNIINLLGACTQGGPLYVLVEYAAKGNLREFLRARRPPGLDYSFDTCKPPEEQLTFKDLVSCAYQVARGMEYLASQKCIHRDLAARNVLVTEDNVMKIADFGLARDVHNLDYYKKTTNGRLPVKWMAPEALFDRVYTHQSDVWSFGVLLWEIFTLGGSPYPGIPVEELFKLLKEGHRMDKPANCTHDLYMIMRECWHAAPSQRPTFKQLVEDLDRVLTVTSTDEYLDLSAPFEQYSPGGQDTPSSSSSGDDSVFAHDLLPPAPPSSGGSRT
Chain of UniProt Q9Y2K2 (whole entry, looked up): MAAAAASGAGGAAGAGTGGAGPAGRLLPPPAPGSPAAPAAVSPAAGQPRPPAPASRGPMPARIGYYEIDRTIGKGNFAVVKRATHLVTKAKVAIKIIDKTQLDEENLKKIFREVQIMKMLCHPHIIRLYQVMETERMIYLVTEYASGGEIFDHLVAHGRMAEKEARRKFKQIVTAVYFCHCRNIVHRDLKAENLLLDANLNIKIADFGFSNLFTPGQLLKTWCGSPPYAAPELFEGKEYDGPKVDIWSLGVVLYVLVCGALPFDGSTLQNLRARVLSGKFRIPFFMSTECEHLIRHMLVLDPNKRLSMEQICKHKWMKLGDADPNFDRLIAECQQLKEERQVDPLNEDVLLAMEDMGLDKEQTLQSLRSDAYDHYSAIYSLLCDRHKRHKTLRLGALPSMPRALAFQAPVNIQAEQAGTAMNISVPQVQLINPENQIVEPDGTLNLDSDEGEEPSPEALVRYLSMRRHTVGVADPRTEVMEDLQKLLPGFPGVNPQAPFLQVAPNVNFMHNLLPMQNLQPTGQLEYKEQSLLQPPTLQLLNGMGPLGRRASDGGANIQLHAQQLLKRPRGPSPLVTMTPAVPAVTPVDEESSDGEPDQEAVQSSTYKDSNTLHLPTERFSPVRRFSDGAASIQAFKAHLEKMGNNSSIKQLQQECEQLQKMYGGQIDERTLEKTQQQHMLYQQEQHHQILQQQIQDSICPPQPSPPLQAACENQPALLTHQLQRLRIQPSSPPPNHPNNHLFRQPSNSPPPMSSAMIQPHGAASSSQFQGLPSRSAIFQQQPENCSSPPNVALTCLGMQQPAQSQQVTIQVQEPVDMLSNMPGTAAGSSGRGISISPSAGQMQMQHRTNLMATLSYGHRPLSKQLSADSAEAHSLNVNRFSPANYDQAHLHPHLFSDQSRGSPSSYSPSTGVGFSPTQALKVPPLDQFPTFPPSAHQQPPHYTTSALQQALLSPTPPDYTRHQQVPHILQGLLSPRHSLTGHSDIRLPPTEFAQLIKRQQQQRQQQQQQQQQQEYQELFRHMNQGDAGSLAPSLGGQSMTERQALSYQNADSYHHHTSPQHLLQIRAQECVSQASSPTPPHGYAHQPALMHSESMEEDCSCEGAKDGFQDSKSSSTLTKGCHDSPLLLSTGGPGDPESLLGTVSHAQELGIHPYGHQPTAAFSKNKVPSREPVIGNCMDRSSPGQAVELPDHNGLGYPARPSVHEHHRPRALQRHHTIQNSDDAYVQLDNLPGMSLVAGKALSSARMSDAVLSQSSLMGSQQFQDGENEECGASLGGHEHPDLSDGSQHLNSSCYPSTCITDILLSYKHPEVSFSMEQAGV
Chain of UniProt Q05655 (whole entry, looked up): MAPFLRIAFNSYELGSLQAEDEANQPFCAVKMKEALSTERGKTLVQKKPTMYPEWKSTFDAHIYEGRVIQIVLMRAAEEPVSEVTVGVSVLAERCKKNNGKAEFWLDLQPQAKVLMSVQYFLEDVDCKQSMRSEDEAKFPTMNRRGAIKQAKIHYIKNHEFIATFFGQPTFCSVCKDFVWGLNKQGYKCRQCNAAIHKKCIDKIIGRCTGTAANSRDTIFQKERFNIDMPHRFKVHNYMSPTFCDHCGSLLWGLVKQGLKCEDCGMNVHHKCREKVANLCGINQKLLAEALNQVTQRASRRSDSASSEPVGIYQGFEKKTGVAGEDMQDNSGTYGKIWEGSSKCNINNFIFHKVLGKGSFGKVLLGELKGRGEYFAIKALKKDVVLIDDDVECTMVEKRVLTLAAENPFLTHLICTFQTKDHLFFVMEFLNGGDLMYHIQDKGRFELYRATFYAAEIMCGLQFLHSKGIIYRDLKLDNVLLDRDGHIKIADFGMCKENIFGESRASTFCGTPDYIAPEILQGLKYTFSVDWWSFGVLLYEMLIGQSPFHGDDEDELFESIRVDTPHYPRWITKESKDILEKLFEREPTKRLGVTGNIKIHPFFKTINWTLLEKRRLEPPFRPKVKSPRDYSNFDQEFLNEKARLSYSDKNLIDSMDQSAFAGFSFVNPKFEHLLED
Chain of UniProt P21802 (whole entry, looked up): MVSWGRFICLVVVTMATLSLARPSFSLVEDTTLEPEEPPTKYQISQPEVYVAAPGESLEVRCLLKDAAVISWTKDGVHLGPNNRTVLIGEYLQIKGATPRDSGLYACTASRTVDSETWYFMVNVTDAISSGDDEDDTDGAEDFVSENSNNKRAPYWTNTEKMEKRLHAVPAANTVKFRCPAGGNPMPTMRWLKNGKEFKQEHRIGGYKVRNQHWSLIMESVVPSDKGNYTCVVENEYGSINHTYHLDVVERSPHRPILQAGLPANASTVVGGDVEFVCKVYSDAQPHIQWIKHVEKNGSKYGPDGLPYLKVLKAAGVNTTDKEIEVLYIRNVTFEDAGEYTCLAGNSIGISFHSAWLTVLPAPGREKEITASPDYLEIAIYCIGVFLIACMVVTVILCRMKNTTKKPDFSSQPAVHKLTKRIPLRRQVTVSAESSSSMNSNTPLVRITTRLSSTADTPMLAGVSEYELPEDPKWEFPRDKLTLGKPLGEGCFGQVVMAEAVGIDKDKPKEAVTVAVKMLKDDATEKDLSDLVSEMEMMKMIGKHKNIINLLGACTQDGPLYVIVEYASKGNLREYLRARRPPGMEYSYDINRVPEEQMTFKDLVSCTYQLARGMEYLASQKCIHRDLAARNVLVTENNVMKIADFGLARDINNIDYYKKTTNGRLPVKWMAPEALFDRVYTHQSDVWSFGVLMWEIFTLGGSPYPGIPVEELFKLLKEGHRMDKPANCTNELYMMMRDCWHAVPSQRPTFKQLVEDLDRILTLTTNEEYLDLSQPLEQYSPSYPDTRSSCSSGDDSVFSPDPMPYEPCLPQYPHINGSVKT

Sample 1
Target: G protein-coupled receptor kinase 4 (GRK4, Homo sapiens, UniProt P32298)
Chain of UniProt P32298 (whole entry, looked up): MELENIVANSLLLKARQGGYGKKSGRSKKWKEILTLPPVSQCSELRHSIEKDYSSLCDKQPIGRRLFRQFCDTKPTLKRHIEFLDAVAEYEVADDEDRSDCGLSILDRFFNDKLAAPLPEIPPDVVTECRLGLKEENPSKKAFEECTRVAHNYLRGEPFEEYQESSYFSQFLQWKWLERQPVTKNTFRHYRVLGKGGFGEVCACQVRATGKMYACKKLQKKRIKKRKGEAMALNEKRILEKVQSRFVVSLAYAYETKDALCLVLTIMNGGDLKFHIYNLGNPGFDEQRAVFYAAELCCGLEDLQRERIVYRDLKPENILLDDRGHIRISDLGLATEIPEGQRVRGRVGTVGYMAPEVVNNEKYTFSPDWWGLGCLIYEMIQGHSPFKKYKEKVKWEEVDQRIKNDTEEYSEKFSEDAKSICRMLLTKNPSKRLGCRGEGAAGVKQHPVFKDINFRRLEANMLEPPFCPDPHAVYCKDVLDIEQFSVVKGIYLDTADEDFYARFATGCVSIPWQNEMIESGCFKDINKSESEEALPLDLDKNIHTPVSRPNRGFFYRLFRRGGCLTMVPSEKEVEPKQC
Effect on: enzyme activity
Action: inhibitor
Tested at: 0.5 µM
Baseline: control
Compound | remaining activity
Cc1ccc(NC(=O)c2ccc(CN3CCN(C)CC3)cc2)cc1Nc1nc(-c2cccnc2)cs1 | 108%
Cn1sc(=O)n(Cc2ccccc2)c1=O | 101%
Oc1ccc(-c2nc(-c3ccncc3)c(-c3ccc(F)cc3)[nH]2)cc1 | 98.5%
O=c1c2ccccc2[nH]c(=S)n1CCN1CCC(=C(c2ccc(F)cc2)c2ccc(F)cc2)CC1 | 107%
Nc1ccc2ncnc(NCCc3ccc(Oc4ccccc4)cc3)c2c1 | 99.6%
CCOC(=O)c1c(C)[nH]c(/C=C2\C(=O)Nc3ccccc32)c1C | 82.9%
COc1cc2ncnc(Nc3ccc(Oc4ccccc4)cc3)c2cc1OC | 97.1%
CC(C)[C@H](CO)Nc1nc(Nc2cc(N)cc(Cl)c2)c2ncn(C(C)C)c2n1 | 103%
Cc1nc(-c2ccccc2)c(-c2ccncc2)o1 | 94.3%
Cc1ccc(Nc2nccc(N(C)c3ccc4c(C)n(C)nc4c3)n2)cc1S(N)(=O)=O | 91.7%
O=C(CCCc1ccc(-c2ccccc2F)cc1)Nc1ccc(O)cc1 | 96.8%
Nc1[nH]nc2nc3ccccc3nc12 | 98.9%
COc1cc2ncnc(Nc3ccc(F)c(Cl)c3)c2cc1OCCCN1CCOCC1 | 91%
O=S(=O)(c1cccc2cnccc12)N1CCCNCC1 | 104%
COc1ccc(OC)c2c(=S)c3ccccc3[nH]c12 | 103%

Sample 2
SMILES: O=C(O)[C@@H]1[C@@H](Cn2nnc3ccccc3c2=O)CC[C@H]1C(=O)c1ccc(OCCC2CCOCC2)cc1
Effect on: cell-free assay
Method: competition with immobilised ligand
Tested at: 1 µM
target | remaining binding [%]
FLT4 (Homo sapiens, UniProt P35916) | 100
IGF1R (Homo sapiens, UniProt P08069) | 100
SIK3 (Homo sapiens, UniProt Q9Y2K2) | 84
CSNK1D (Homo sapiens, UniProt P48730) | 100
FGFR3 (Homo sapiens, UniProt P22607) | 100
FGFR2 (Homo sapiens, UniProt P21802) | 100
PRKCD (Homo sapiens, UniProt Q05655) | 100
MET (Homo sapiens, UniProt P08581) | 100

Sample 3
Target: Histone acetyltransferase KAT6A, winged helix 2, GST fusion (KAT6A, Homo sapiens, UniProt Q92794, residues 85-181)
Method: protein binding microarray
Molecule type: double-stranded DNA, one strand shown
Medium: in vitro
Tested at: not given
Setting: 8-mer, flanks averaged, mean of 2 arrays, mostly near background
Baseline: not given
Reading: higher = stronger binding
Construct (chain): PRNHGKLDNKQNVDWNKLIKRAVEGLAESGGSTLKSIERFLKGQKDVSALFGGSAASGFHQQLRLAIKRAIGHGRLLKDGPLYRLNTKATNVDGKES
Oligonucleotide | E-score
ATTCCCAG | -0.0242
CCCACCTA | -0.0727
AAAGATGT | -0.121
ACTGCATC | 0.00559
CCTCCTAC | -0.111
GATAGCAC | 0.00442
CTGATCAC | -0.0378
AACACCAT | -0.0323

Sample 4
Target: CCND1, cyclin fold, Cln2 fusion (human)
Method: yeast growth competition, sequencing
Medium: yeast
Setting: weak parent motif
Baseline: not given
Reading: higher = stronger binding
Starting sequence: PKMYT1 docking peptide (human); SFEPRNLLSLFED; partner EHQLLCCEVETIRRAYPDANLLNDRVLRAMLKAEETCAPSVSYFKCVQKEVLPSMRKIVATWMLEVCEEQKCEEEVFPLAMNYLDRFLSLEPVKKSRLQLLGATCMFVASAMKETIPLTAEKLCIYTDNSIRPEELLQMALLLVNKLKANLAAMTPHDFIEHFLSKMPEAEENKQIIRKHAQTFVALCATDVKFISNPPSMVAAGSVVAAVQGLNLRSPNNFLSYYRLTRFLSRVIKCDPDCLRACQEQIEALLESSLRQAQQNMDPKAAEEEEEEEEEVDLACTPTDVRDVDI
Substitution | normalised enrichment score
R5C | 0.955
L7S | 0.987
P4S | 1.06
S1K | -0.473
F11E | 0.394
R5Y | 1.17
S9R | 0.93
R5V | 1.4
